Measurements of several laboratories.
“And” joins repeats or separate records; there may be more than shown. Numbers after ± are the reported error.
APP Aβ40 fibrils: Amyloid-beta precursor protein, Aβ40 fibrils (APP, Homo sapiens, UniProt P05067)
APP amyloid-beta: Amyloid-beta precursor protein, amyloid-beta (APP, Homo sapiens, UniProt P05067)
APP amyloid-beta aggregates: Amyloid-beta precursor protein, amyloid-beta aggregates (APP, Homo sapiens, UniProt P05067)
APP: Amyloid-beta precursor protein (APP, Homo sapiens, UniProt P05067)
APP Aβ42 aggregates: Amyloid-beta precursor protein, Aβ42 aggregates (APP, Homo sapiens, UniProt P05067)
APP Aβ42 fibrils: Amyloid-beta precursor protein, Aβ42 fibrils (APP, Homo sapiens, UniProt P05067)
APP fibril: Amyloid-beta precursor protein, fibril (APP, Homo sapiens, UniProt P05067)

SMILES = COc1cc(-c2nc3ccccc3s2)cc(CN2CCN(C)CCN(C)CC2)c1O; target = APP Aβ40 fibrils; test = Aβ fibril binding, ThT fluorescence competition; conditions = Cu complex of ligand, Aβ 2 µM, added: thioflavin T 1 µM; measurement = Ki; result = 765 ± 30 nM
SMILES = CCc1noc(-c2ccc(-n3cnc(C(=O)NCc4cccs4)c3)nc2)n1; target = APP amyloid-beta; test = binding, competition binding; system = Alzheimer brain homogenate; conditions = added: [3H]PiB; measurement = Ki; result = > 1000 nM
SMILES = CCN(CC)c1ccc(C=C(C#N)C(=O)OCCOCCOCCOC)cc1; target = APP amyloid-beta aggregates; test = IgG-amyloid beta binding, inhibitor, ELISA; conditions = 50 % inhibition, added: aggregated amyloid beta; measurement = IC50; result = 11400 nM
SMILES = COc1cc(-c2nc3ccccc3s2)cc(CN2Cc3cccc(n3)CN(Cc3cc(-c4nc5ccccc5s4)cc(OC)c3O)Cc3cccc(n3)C2)c1O; target = APP Aβ40 fibrils; test = Aβ fibril binding, ThT fluorescence competition; conditions = Cu complex of ligand, Aβ 2 µM, added: thioflavin T 1 µM; measurement = Ki; result = 142 ± 55 nM
SMILES = CN(C)c1ccc(-c2ccc3cc(OCC(O)CF)ccc3n2)cc1 (centres unmarked); target = Amyloid-beta precursor protein, amyloid-beta plaques (APP, Homo sapiens, UniProt P05067); test = binding, [3H]AV-45 displacement; system = Alzheimer's disease brain; conditions = added: [3H]AV-45 10 nM; measurement = IC50; result = 53.7 nM and 56.2 nM
SMILES = O=C(O)CN(CCNc1ccc(N=Nc2cc(C(F)(F)F)cc(C(F)(F)F)c2)c2ccccc12)CC(=O)O; target = APP; test = binding, MST; measurement = Kd; result = 732 nM
SMILES = CCCCN(CCCC)c1ccc(C=C(C#N)C(=O)OCCOCCOCCOC)cc1; target = APP Aβ42 aggregates; test = binding, fluorescence titration; conditions = added: pre-aggregated Aβ(1-42) 5.0 µM; measurement = Kd; result = 4400 nM
SMILES = CC(=O)Nc1ccc(-n2cnc(C(=O)NCc3cccs3)c2)nc1; target = APP amyloid-beta; test = binding, competition binding; system = Alzheimer brain homogenate; conditions = added: [3H]PiB; measurement = Ki; result = > 1000 nM
SMILES = O=C(C=Cc1ccc(O)c(OC(F)(F)F)c1)C(CCOCCOCCOCCO)C(=O)C=Cc1ccc(O)c(OC(F)(F)F)c1 (centres unmarked); target = APP amyloid-beta aggregates; test = binding, thioflavin T competition; measurement = IC50; result = 1850 nM
SMILES = COc1cc(O)c2c(c1O)OC(c1ccccc1)CC2=O (centres unmarked); target = APP; measurement = IC50; result = 55300 ± 2000 nM
SMILES = COc1cc(-c2nc3ccccc3s2)cc(CN(Cc2ccccn2)Cc2ccccn2)c1O; target = APP Aβ40 fibrils; test = binding to Aβ fibrils, fluorescence titration; measurement = Kd; result = 135 ± 25 nM
SMILES = COCCOCCOCCOC(=O)C(C#N)=Cc1ccc(N(C)C)cc1; target = APP amyloid-beta aggregates; test = IgG-amyloid beta binding, inhibitor, ELISA; conditions = 50 % inhibition, added: aggregated amyloid beta; measurement = IC50; result = 129000 nM
SMILES = OC(Cc1cc(-c2ccc(C(O)C(F)(F)F)s2)sc1-c1ccc(-c2sc(-c3ccc(C(O)C(F)(F)F)s3)cc2CC(O)C(F)(F)F)s1)C(F)(F)F (centres unmarked); target = Amyloid-beta precursor protein, Aβ40 aggregates (APP, Homo sapiens, UniProt P05067); test = fluorescence; conditions = Aβ aggregated 200 min; measurement = Kd; result = 3270 nM and 3300 nM
SMILES = COc1cc(OC)c2c(O)c3c(cc2c1)OC(C)(O)CC3=O (centres unmarked); target = APP; test = amyloid aggregation, inhibitor, fluorescence; measurement = IC50; result = 65900 nM
SMILES = CNc1ccc(-c2nc3ccc(O)c(CN4CCN(C)CCN(C)CC4)c3s2)cc1; target = APP Aβ40 fibrils; test = binding to Aβ aggregates, ThT competition; conditions = Aβ 5 µM, added: ThT 2 µM; measurement = Ki; result = 85 ± 9 nM
SMILES = COCCOCCOCCOC(=O)/C(C#N)=C/c1ccc2cc(NCCN3CCOCC3)ccc2c1; target = APP Aβ42 aggregates; test = binding, fluorescence titration; conditions = 5% DMSO in water, added: aggregated Abeta42 5 µM; measurement = Kd; result = 6700 ± 2100 nM
SMILES = COCCOCCOCCOC(=O)C(C#N)=Cc1ccc(C=Cc2ccc(N(C)C)cc2)cc1; target = APP amyloid-beta aggregates; test = IgG-amyloid beta binding, inhibitor, ELISA; conditions = 50 % inhibition, added: aggregated amyloid beta; measurement = IC50; result = 33600 nM
SMILES = COc1ccc(-c2cc(=O)c3c(O)cc(O)c(-c4cc(-c5cc(=O)c6c(O)cc(O)cc6o5)ccc4O)c3o2)cc1; target = APP Aβ42 fibrils; test = amyloid-beta 1-42 disaggregation, thioflavin T fluorescence; conditions = 7 h, 37 °C, added: 5 µM thioflavin T; measurement = EC50; result = 1450 ± 400 nM
SMILES = CN(C)c1ccc(-c2nc3ccc(OCCCN4CCN5CCN(CC4)CC(=O)[O][Al]([F])[O]C(=O)C5)cc3s2)cc1; target = APP fibril; test = ligand displacement, radioligand; measurement = Ki; result = 25.2 nM
SMILES = COc1cc(-c2nc3ccccc3s2)cc(CN2Cc3cccc(n3)CN(C)Cc3cccc(n3)C2)c1O; target = APP Aβ40 fibrils; test = Aβ fibril binding, ThT fluorescence competition; conditions = Cu complex of ligand, Aβ 2 µM, added: thioflavin T 1 µM; measurement = Ki; result = 325 ± 25 nM
SMILES = COc1cc(-c2nc3ccccc3s2)cc(CN(C)Cc2ccccn2)c1O; target = APP Aβ40 fibrils; test = binding, ThT competition; system = Aβ fibrils; conditions = Aβ 5 µM, added: ThT 2 µM; measurement = Ki; result = 36 ± 6 nM
SMILES = O=C1C=C2OC3(O)CC(=O)c4c(O)cc(O)cc4C3=C2c2cc(O)cc(O)c21 (centres unmarked); target = APP; test = amyloid aggregation, inhibitor, fluorescence; measurement = IC50; result = 3900 nM
SMILES = COCCOCCOCCOCCOC(=O)/C(C#N)=C/c1ccc2cc(N3CCCCC3)ccc2c1; target = APP Aβ42 aggregates; test = binding, fluorescence titration; conditions = 5% DMSO in water, added: aggregated Abeta42 5 µM; measurement = Kd; result = 1600 ± 900 nM
SMILES = Cc1noc(-c2ccc(-n3cnc(C(=O)NCc4cccs4)c3)nc2)n1; target = APP amyloid-beta; test = binding, competition binding; system = Alzheimer brain homogenate; conditions = added: [3H]PiB; measurement = Ki; result = > 1000 nM
SMILES = COCCOCCOCCOC(=O)C(C#N)=Cc1ccc2cc(N3CCCCC3)ccc2c1; target = APP Aβ42 aggregates; test = binding, fluorescence titration; conditions = added: pre-aggregated Aβ(1-42) 5.0 µM; measurement = Kd; result = 2500 nM
SMILES = COc1ccc(-c2cc(=O)c3c(O)cc(O)c(-c4cc(-c5cc(=O)c6c(O)cc(OC)cc6o5)ccc4OC)c3o2)cc1; target = APP Aβ42 fibrils; test = amyloid-beta 1-42 disaggregation, thioflavin T fluorescence; conditions = 7 h, 37 °C, added: 5 µM thioflavin T; measurement = EC50; result = > 10000 nM
SMILES = CN(C)c1ccc(-c2nc3ccc(OCCCCCN4CCN5CCN(CC4)CC(=O)[O][Al]([F])[O]C(=O)C5)cc3s2)cc1; target = APP fibril; test = ligand displacement, radioligand; measurement = Ki; result = 11.3 nM
SMILES = CN(C)c1ccc(C=C(C#N)C(=O)OCC(O)CO)cc1 (centres unmarked); target = APP amyloid-beta aggregates; test = IgG-amyloid beta binding, inhibitor, ELISA; conditions = 50 % inhibition, added: aggregated amyloid beta; measurement = IC50; result = 82100 nM
SMILES = COc1cc(O)c(O)c2c1C(=O)CC(c1ccccc1)O2 (centres unmarked); target = APP; measurement = IC50; result = 33400 ± 1400 nM

For quick reference, copied from above:
SMILES = Cc1noc(-c2ccc(-n3cnc(C(=O)NCc4cccs4)c3)nc2)n1; target = APP amyloid-beta; test = binding, competition binding; system = Alzheimer brain homogenate; conditions = added: [3H]PiB; measurement = Ki; result = > 1000 nM
SMILES = COCCOCCOCCOC(=O)C(C#N)=Cc1ccc2cc(N3CCCCC3)ccc2c1; target = APP Aβ42 aggregates; test = binding, fluorescence titration; conditions = added: pre-aggregated Aβ(1-42) 5.0 µM; measurement = Kd; result = 2500 nM
SMILES = COc1ccc(-c2cc(=O)c3c(O)cc(O)c(-c4cc(-c5cc(=O)c6c(O)cc(OC)cc6o5)ccc4OC)c3o2)cc1; target = APP Aβ42 fibrils; test = amyloid-beta 1-42 disaggregation, thioflavin T fluorescence; conditions = 7 h, 37 °C, added: 5 µM thioflavin T; measurement = EC50; result = > 10000 nM
SMILES = CN(C)c1ccc(-c2nc3ccc(OCCCCCN4CCN5CCN(CC4)CC(=O)[O][Al]([F])[O]C(=O)C5)cc3s2)cc1; target = APP fibril; test = ligand displacement, radioligand; measurement = Ki; result = 11.3 nM
